Measurements pooled from the literature.
Each line is one published result; not all experiments were run side by side. ± gives the spread as reported.
Chain of UniProt P22789 (whole entry, looked up): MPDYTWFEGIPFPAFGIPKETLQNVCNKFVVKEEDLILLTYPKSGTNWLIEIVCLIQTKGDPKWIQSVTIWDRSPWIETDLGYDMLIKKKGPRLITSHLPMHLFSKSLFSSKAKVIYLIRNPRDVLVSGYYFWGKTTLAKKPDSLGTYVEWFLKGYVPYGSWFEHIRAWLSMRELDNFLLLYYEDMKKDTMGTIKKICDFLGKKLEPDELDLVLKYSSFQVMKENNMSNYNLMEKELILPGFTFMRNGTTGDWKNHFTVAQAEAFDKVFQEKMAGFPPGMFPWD
Chain of UniProt Q9HXU0 (whole entry, looked up): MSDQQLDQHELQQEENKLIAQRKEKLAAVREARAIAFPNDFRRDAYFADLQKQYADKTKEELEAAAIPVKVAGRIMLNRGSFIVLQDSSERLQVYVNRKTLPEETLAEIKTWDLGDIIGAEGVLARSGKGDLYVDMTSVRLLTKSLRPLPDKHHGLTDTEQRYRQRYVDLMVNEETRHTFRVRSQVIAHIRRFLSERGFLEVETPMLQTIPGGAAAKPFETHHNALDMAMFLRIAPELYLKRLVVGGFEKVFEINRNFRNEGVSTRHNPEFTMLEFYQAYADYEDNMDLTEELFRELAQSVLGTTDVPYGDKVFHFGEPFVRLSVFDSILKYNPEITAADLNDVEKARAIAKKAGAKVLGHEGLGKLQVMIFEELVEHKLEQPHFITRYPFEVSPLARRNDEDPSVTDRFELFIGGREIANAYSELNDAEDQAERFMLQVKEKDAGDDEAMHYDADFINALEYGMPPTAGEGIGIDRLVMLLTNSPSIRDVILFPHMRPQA
Chain of UniProt Q2PAY2 (whole entry, looked up): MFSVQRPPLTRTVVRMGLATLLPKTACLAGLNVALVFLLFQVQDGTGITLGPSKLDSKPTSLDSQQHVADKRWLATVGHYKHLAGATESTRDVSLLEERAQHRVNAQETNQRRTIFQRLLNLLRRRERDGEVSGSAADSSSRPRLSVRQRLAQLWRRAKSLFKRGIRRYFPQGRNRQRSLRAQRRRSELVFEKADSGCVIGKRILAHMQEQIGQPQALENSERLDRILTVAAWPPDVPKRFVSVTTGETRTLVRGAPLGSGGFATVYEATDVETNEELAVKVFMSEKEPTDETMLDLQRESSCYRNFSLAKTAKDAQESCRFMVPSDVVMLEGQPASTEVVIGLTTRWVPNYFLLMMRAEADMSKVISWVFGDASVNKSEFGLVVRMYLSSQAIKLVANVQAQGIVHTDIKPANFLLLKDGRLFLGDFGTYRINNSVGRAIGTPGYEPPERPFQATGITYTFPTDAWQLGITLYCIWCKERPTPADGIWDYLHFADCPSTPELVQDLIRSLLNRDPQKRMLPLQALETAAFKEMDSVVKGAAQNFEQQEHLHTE
Chain of UniProt P04062 (whole entry, unmodified, looked up): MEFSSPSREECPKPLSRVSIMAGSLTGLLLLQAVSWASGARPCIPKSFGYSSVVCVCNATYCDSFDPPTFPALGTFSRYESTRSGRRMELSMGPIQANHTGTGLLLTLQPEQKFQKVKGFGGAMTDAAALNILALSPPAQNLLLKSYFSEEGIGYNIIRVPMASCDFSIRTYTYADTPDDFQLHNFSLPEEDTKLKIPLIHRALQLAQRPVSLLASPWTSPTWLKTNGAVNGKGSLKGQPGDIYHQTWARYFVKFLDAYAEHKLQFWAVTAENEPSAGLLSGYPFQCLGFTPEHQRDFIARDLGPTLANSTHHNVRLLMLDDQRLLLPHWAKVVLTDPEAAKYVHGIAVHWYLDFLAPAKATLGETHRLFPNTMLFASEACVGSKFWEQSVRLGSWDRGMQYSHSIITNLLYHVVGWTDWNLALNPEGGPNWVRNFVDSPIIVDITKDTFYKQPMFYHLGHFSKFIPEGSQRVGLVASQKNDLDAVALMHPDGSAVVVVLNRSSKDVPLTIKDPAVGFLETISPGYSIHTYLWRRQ
Chain of UniProt Q388M1 (whole entry, looked up): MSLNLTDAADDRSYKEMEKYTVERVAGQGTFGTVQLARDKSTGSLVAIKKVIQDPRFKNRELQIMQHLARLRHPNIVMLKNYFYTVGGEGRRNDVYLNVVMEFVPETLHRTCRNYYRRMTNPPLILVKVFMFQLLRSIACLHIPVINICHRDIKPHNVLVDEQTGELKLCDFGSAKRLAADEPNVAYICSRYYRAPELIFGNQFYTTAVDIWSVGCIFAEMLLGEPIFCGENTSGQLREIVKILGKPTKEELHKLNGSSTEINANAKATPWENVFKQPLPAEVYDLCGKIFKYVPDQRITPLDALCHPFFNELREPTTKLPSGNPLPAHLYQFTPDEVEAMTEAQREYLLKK
Chain of UniProt P19224 (whole entry, looked up): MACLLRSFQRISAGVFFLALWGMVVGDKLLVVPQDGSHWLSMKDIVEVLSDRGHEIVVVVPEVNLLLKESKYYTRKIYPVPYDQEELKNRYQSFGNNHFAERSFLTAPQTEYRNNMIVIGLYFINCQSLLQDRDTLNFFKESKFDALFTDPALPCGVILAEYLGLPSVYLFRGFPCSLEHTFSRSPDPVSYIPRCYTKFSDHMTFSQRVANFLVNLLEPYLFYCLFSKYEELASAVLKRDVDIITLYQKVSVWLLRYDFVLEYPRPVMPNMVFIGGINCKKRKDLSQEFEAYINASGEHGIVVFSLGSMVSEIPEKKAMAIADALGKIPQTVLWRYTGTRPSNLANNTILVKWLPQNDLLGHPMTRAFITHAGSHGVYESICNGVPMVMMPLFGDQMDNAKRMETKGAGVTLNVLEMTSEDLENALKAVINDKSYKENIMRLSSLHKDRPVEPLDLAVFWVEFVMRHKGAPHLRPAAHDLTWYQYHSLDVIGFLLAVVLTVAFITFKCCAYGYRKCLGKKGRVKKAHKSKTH
Chain of UniProt P81908 (whole entry, looked up): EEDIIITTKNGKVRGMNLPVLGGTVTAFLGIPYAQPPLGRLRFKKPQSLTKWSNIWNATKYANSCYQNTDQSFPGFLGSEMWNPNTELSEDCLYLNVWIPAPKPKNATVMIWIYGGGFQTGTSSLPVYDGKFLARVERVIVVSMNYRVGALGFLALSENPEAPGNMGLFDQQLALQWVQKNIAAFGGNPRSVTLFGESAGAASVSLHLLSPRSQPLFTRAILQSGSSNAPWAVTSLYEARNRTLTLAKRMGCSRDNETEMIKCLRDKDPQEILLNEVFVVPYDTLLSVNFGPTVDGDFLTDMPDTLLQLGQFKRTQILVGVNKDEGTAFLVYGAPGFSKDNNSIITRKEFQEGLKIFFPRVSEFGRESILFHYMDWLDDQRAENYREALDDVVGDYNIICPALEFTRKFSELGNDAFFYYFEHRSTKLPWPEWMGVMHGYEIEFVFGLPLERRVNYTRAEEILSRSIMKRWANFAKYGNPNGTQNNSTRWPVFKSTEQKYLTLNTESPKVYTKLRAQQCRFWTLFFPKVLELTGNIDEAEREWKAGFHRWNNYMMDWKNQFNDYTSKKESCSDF
Chain of UniProt Q00534 (whole entry, looked up): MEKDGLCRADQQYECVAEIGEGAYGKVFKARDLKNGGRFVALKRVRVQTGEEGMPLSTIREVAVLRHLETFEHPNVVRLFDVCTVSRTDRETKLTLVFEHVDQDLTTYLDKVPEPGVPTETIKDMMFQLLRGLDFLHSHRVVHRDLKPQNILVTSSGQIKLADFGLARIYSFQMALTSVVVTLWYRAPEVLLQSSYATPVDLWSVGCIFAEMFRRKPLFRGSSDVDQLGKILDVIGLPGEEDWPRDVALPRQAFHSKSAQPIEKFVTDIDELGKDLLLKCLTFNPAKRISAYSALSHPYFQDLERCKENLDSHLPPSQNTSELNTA
Chain of UniProt P17706 (whole entry, looked up): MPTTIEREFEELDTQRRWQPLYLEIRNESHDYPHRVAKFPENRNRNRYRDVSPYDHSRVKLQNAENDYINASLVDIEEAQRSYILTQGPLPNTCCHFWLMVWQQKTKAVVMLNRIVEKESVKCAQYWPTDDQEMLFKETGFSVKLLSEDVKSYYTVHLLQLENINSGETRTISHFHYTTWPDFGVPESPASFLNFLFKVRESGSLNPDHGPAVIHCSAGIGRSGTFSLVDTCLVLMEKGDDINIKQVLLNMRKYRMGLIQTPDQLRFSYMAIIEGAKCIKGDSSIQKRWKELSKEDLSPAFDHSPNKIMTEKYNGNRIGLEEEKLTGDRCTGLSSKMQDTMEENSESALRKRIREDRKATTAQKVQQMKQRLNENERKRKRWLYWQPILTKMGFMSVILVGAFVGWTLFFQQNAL
Chain of UniProt P06276 (whole entry, looked up): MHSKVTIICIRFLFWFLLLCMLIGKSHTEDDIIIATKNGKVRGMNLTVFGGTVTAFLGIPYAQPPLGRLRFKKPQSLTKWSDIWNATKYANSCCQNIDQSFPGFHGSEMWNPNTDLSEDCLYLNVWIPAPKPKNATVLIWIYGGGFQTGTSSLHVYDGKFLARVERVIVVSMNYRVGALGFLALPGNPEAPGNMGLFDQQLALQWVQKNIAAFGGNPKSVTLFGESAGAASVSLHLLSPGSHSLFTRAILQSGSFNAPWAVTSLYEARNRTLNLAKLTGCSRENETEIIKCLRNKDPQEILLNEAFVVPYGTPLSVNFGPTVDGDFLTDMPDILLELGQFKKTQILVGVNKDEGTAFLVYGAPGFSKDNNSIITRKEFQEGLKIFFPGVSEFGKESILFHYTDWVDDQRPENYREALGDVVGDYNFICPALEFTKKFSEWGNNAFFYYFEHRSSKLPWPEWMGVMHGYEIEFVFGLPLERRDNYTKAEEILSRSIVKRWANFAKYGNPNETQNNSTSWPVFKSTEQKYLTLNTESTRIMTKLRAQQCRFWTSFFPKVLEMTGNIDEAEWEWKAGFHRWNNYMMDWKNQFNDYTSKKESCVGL
Chain of UniProt P14174 (whole entry, looked up): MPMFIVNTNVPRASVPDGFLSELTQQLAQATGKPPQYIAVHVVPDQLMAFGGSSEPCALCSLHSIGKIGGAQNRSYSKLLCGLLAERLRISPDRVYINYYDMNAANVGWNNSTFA

CN(Cc1cccc(-c2ccncc2)c1)C(=O)OC(C(F)(F)F)C(F)(F)F gave an IC50 of 13 nM (Monoacylglycerol lipase ABHD6 (Abhd6, Rattus norvegicus, UniProt Q5XI64); competitive ABPP; rat brain membrane proteome).
The IC50 of CC[C@@]1(O)C(=O)OCc2c1cc1n(c2=O)Cc2cc3ccccc3nc2-1 is reported as 120 nM (ERRα (human); reporter gene, antagonist, luciferase reporter qHTS).
For O=C1Nc2ccc(S(=O)(=O)O)cc2C1=C1Nc2ccccc2C1=NO, the IC50 was 480 nM (GSK3, short isoform (Trypanosoma brucei, UniProt Q388M1); enzyme activity, inhibitor; 90 min, 30 °C, added: ATP 2 µM).
For S=C(N/N=C1\CCCc2c1[nH]c1ccc(C3CCCCC3)cc21)Nc1ccccc1, the IC50 was 30000 nM (Lysine--tRNA ligase (lysS, Pseudomonas aeruginosa, UniProt Q9HXU0); aminoacylation, scintillation proximity).
The IC50 of CCc1ccc(C(=O)NCCCC[C@H](NC(=O)[C@H](Cc2ccc(C(F)(F)P(=O)(O)O)cc2)NC(=O)[C@H](Cc2ccccc2)NC(=O)CO[C@H]2C[C@@H](C)CC[C@@H]2C(C)C)C(N)=O)cc1 is reported as 8.7 ± 1.4 nM (PTPN2 (Homo sapiens, UniProt P17706); enzyme activity, inhibitor; enzyme preincubated 30 min, added: pNPP substrate).
COc1ccc(NC(=O)N2CCCCCN3[C@H](CO)[C@H](c4ccc(C#Cc5ccccc5)cc4)[C@@H]3C2)cc1 gave an IC50 of 97 nM (Phenylalanine--tRNA ligase alpha subunit (Plasmodium falciparum, UniProt Q8I246); aminoacylation activity, inhibitor).
With C=C(C)[C@@H]1CCC(C)=C[C@H]1c1c(O)cc(CCCCC)cc1O the IC50 was 10000 ± 2600 nM (UGT1A6 (Homo sapiens, UniProt P19224); enzyme activity, inhibitor; recombinant UGT1A6 microsomes from HEK293; pH 7.4, glucuronidation, added: serotonin).
With CN1CC[C@]2(C)c3cc(OC(=O)Nc4ccccc4)ccc3N(C)[C@H]12 the IC50 was 49300 ± 1500 nM (Cholinesterase (BCHE, Homo sapiens, UniProt P06276); enzyme activity, inhibitor, immobilized enzyme reactor, HPLC-UV; immobilized recombinant human enzyme; inhibition plateau, L-tartrate salt).
The IC50 of NC(=O)CI is reported as 7010 nM (GBA1 (Homo sapiens, UniProt P04062, R534H); enzyme activity, inhibitor; pH 5.9, 1.9 nM enzyme, added: 30 µM resorufin β-glucoside).
CCN=C=S gave an IC50 of 11100 nM (MIF (Homo sapiens, UniProt P14174); enzyme activity, inhibitor; with preincubation).
Oc1ccc(-c2ccc(Cl)c(Cl)c2)cc1 gave an IC50 of 160000 nM (Sulfotransferase 2A6 (Sult2a6, Rattus norvegicus, UniProt P22789); enzyme activity, inhibitor; 6 min, 37 °C, added: DHEA 10 µM).
O=c1cc(CN2CCN(C(c3ccccc3)c3ccccc3)CC2)c2ccc(O)c(O)c2o1 has an IC50 of 1900 nM (Gag-Pol polyprotein, reverse transcriptase p66/p51 (gag-pol, Human immunodeficiency virus type 1 group M subtype B, UniProt P04585); RNase H activity, inhibitor; p66/p51 RT heterodimer; pH 8.0, added: 10 mM Mg2+).
CC(C)C[C@H](NC(=O)[C@H](Cc1ccccc1)NC(=O)c1cnccn1)B(O)O gave an IC50 of 3300 ± 200 nM (Proteasome subunit beta 2, alpha/beta1 complex (prcB2, Salinispora tropica, UniProt A4X744)).
CC(C)COC(=O)c1ccc2c(c1)/C(=C/Nc1ccc(S(N)(=O)=O)cc1)C(=O)N2 has an IC50 of 170 nM (ROP18 (Toxoplasma gondii, UniProt Q2PAY2); enzyme activity, inhibitor).
The IC50 of O=[N+]([O-])c1cccc2[nH]c(CNc3nc(N4CCOCC4)nc4c3ncn4-c3ccsc3)nc12 is reported as 311 nM (Cyclin-dependent kinase 6, with cyclin D3 (CDK6, Homo sapiens, UniProt Q00534); enzyme activity, inhibitor).
The IC50 of Cc1ccncc1OC(=O)NCCCCCn1ccc2ccc(F)cc21 is reported as 360 nM (Cholinesterase (BCHE, Equus caballus, UniProt P81908); enzyme activity, inhibitor, HPLC).

Repeated from above:
For O=C1Nc2ccc(S(=O)(=O)O)cc2C1=C1Nc2ccccc2C1=NO, the IC50 was 480 nM (GSK3, short isoform (Trypanosoma brucei, UniProt Q388M1); enzyme activity, inhibitor; 90 min, 30 °C, added: ATP 2 µM).
